# Experimental data gathered from unrelated publications.
# Every numbered part comes from another study and shows a few of its results, in no order.

# Set 1
# Target: Histone acetyltransferase KAT6A, winged helix 2, GST fusion (KAT6A, Homo sapiens, UniProt Q92794, residues 85-181)
# Method: protein binding microarray
# Molecule type: double-stranded DNA, one strand shown
# Sample: in vitro
# Tested at: not given
# Setting: 8-mer, flanks averaged, mean of 2 arrays, mostly near background
# Reference: not given
# Reading: higher = stronger binding
# Construct (chain): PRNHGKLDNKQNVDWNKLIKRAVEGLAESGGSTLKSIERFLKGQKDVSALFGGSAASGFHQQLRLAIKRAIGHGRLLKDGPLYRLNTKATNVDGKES
Oligonucleotide,E-score
AGAATGCC,0.0662
CCTACCCG,0.194
ATCAATGA,0.0681
GCGTCACA,-0.00561
GGGCATAC,0.108
ATCTCCCA,-0.0581

# Set 2
# Target: RNA binding protein fox-1 homolog 2, RRM domain, GST-SBP tag (RBFOX2, Homo sapiens, UniProt O43251-10, residues 100-194)
# Method: RNA Bind-n-Seq
# Molecule type: RNA
# Sample: in vitro
# Tested at: 365 nM
# Setting: natural RNA segment, single round, ends assumed
# Reference: no-protein control
# Reading: higher = stronger binding
# Shared flanks, not repeated: GGGAGUUCUACAGUCCGACGAUC … UGGAAUUCUCGGGUGCCAA
# Residues (chain): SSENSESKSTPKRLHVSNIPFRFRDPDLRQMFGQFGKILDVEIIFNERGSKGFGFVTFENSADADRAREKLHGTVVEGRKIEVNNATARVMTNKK
Oligonucleotide,RBNS enrichment (R)
UGAGUCUGAGAUUUCGUUGUUUUUAAUACUUUAAAAAAAAAAGUCUCUUUUAGAAAGAAAAUGAUAUAUAGGGUAAGCGGAAUUUGGGAGCCACGGCCCCAGUAAGUAAU,0.547
CCACAGGAAGUCCAGUCCCGACAGUGCCCUUGUUGCCUUUGAGCCAGAUCCAUGGCAAUGGUCUCCCCACAGACCGCAGGACUGAGCCUGGAGAGAGAAGUUGCUUGACG,0.346
ACCAGCUGGCUUUGUGACCUUGGGCGAGUCGCCUCCCCUCUCUGAGCUGAAGCCGCCCCUCCCCUACUACAACAGGGGUCGGACUCCAUGUCUGAGCGGGGAGGAGGGUC,0.286
AAGGGCAAUGUUUUUCUGUAACAUAUUGGAAAAAGAAAAUGCAGUUAUAUUCCUUUUUUAUUUGUUCCUUUAGUUUGUUUUGGUUCAGCAGUCAGCAGUUAAGUAUAUAA,0.927
UUUAAAUUUUCAAAAGAAAAUUUUCUUUCAACAUUUCUUGAAGGACAUGGAGUGGAGAUUGGAUCAUUUAACAAUAUAACAAAACUUCCUGAUUUGAUUUUACGUAUCUU,0.673
GACUGGCAGUUAACUUGUGCAACUCACUGAAACCAAAAUAUUGAAGAAGUCCCACAUGGAAGACGCUGUUCCAGGAUCUUUACCUUUCCAAAGGAUGCAUACAGGAUAUU,0.913
UCUGGAGGCCAACAAGUCCCACGAUCGGCUGUCUGCGAUUGGGAGACCAGGAGAAGCCACACCGUAACUCAGUCUGAGUCCAAAGCCCGAGAAGCCAGGGGCCACCCUGU,0.195

# Set 3
# Target: Interferon regulatory factor 7, full length, phosphomimetic (IRF7, Homo sapiens, UniProt Q92985, residues 1-503, S471D/S472D/S475D/S476D/S477D/S483D/S484D/S487D)
# Chain of UniProt Q92985 (whole entry, unmodified, looked up): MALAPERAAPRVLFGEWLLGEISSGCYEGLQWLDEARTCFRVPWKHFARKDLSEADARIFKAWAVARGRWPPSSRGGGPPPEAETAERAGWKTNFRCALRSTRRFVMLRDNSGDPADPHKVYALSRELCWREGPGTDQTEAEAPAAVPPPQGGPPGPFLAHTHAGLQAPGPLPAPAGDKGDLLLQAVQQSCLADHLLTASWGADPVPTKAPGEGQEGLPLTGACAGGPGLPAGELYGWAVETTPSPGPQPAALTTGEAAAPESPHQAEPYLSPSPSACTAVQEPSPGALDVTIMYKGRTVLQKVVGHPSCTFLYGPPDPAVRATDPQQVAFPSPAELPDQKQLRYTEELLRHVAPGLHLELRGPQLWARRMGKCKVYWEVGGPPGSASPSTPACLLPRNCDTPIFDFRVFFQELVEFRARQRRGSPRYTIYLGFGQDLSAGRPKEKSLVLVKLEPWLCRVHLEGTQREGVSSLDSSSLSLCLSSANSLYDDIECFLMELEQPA
# Method: protein-binding microarray
# Molecule type: double-stranded DNA, one strand shown
# Sample: in vitro
# Tested at: 2200 nM top
# Setting: 60-bp whole probe
# Added: salmon DNA 0.4 mg/ml
# Reference: random background probes
# Reading: higher = stronger binding
# Shared flanks, not repeated: GCCTAGCAC … GTCTTGATTCGCTTGACGCTGCTG
Oligonucleotide,fitted relative affinity [z-score]
TTCGGTATCGGGTATCGGTTAGTGCTA,1.13
GACGGACAGGGACTGGGGACGTGCTAG,-0.879
ATAGGACTGGGTCTCGGTTAGTGCTAG,0.0908
TTGGTTCTGATCCTTCCCCTCGTGCTA,1.69
TCACCTTCTACTCTCCTACTGTGCTAG,2.47
GACGGTATCGGTCCCGGGACGTGCTAG,-0.165

# Mixed results
Substance,target,test,system,setting,how to read,measurement,value
"PhoQ, residues 284 288 289 292 302 303 GANMMA","PhoP, residues 12 14 15 18 19 VQGLL (Escherichia coli, UniProt P23836)","Sort-seq, measured: YFP reporter",E. coli,"PhoQ-PhoP variant library, added: 10 µM Mg2+","reference: high Mg2+ state, higher = stronger signaling",fold induction,3.15

# A few entries again (set 1):
Oligonucleotide,E-score
ATCAATGA,0.0681
GCGTCACA,-0.00561
GGGCATAC,0.108
